Measurements collected from several papers.
Compare with care: the assays were run in different laboratories. ± gives the spread as reported.

N=C(N/N=C/c1cc(C(F)(F)F)cc(C(F)(F)F)c1)N/N=C/c1cc(C(F)(F)F)cc(C(F)(F)F)c1
IC50 (KP-4; cell growth or viability, crystal violet; 72 h): 134 µM

O=C(c1ccncc1)N1N=C2/C(=C/c3ccc(Br)cc3)CCCC2C1c1ccc(Br)cc1 (stereo not shown)
IC50 (human erythrocytes; membrane protection, HRBC membrane stabilization): 0.075 µM

O=C1Nc2ccc(-c3ccc4cc(O)ccc4c3)cc2/C1=C/c1ccc(N2CCNCC2)cc1
IC50 (NIH3T3; cell growth or viability, WST-1; 48 h): 0.283 µM

COc1ccc2cc3[n+](cc2c1OCc1cn(Cc2c(Cl)cc(Cl)cc2Cl)nn1)CCc1cc2c(cc1-3)OCO2
IC50 (SW1990; cell growth or viability, MTT): 13.3 µM

C=CC(OC(C)=O)c1cc(OC)c(OC(C)=O)c(OC)c1 (stereo not shown)
IC50 (HSC-4; MTT; 24 h): > 50 µM

Cc1cc(N)c2cc(NC(=O)CCCCC(=O)Nc3ccc4nc(C)cc(N)c4c3)ccc2n1
IC50 (CHO wild type; FGF2 binding to heparan sulfate, inhibitor, flow cytometry; on ice, added: biotinylated FGF2 2.5 nM): 8.4 ± 1.2 µM

Cc1c(C)n(-c2c(C(C)C)cccc2C(C)C)c(=[Se])n1-c1c(C(C)C)cccc1C(C)C.[Cl][Au]
IC50 (LoVo; cell growth or viability, MTT; 72 h): 1 µM

N#C/C(=C\c1cn(-c2ccccc2)nc1-c1cccc(Cl)c1)c1nc2ccccc2[nH]1
IC50 (SW1990; cell growth or viability, ATP luminescence; 72 h): 70.3 µM

CCOC12C(O)C(OC)C3(O)CC(O)(C1C3OC(=O)c1ccccc1)C13C(OC)CC(O)C4(COC)CN(C)C1C2C(OC)C43 (stereo not shown)
IC50 (HBE; cell growth or viability, MTT): 32.1 µM

CCN(CC)CCNC(=O)c1c(C)[nH]c(/C=C2\C(=O)Nc3ccc(F)cc32)c1C
IC50 (T98G; cell growth or viability, MTT; 72 h): 3 µM

CCN(CC)c1ccc2c(c1)Oc1cc(N(CC)CC)ccc1C21c2ccccc2C(=O)N1N=Cc1c[c-]c(-c2ccccn2)cc1.Cc1c(C)c(-c2ccc(-c3ccccc3)cc2)[c-](C)c1C.[Cl-].[Ir+3]
IC50 (A549 human cancer cells; cell growth, MTT; 24 h): 36.8 ± 1.6 µM

CC1(C)Cc2c(-c3ccccc3)c(-c3ccc(Cl)cc3)c(CC(=O)O)n2C1
IC50 (human Macrophage; PGE2 release, inhibitor; 24 h, LPS-stimulated): 0.56 µM

CC1CC(=O)N(CCCCCN)N=C1c1ccc(NC(=O)N2Cc3ccncc3C2)cc1 (stereo not shown)
IC50 (MDA-MB-453; cell growth or viability, ATP luminescence): < 3e-05 µM

CCCCCCC(=O)NCCNC(=O)[C@@]1(C)[C@H](O)CC[C@@]2(C)[C@H]1CC[C@]1(C)[C@@H]2C(=O)C=C2[C@@H]3[C@@H](C)[C@H](C)CC[C@]3(C)CC[C@]21C
IC50 (HBE; cell growth or viability, MTT; 48 h): 7.86 µM

CN1CCN(C(=O)N(CCCCCCC(=O)NO)c2ccc(-c3ccc4cnn(C)c4c3)cc2)CC1
IC50 (MJ; cell viability; 72 h): 0.0933 ± 0.0042 µM

Cc1cc(C#N)cc(C)c1Oc1cc(Nc2ccc(C#N)cc2)nc2cnccc12
IC50 (HuCC-A1; 48 h): > 128 µM

N[C@@H](CCC(=O)N[C@@H](CS[Se]Cc1ccc(-c2cc(C(F)(F)F)nn2-c2ccc(S(N)(=O)=O)cc2)cc1)C(=O)NCC(=O)O)C(=O)O
IC50 (WM35 melanoma cells; cell viability, MTS; 72 h, radial stage): 2.7 ± 0.4 µM

CCOP(=O)(OCC)C(Cc1ccc(F)cc1)Nc1ccc(Cl)cc1 (stereo not shown)
IC50 (T98G; cell growth or viability, MTT; 48 h): 73.5 µM

N=C(N)NCCC[C@H](N)C(=O)N1CCC[C@H]1C(=O)N[C@@H](CC(=O)N[C@@H](Cc1ccc(O)cc1)C(=O)O)c1cccc2ccccc12
IC50 (MCF-7 (no HER2 overexpression)): > 50 µM

CC(=O)O[C@@H]1CC[C@@]2(C)[C@@H](CC[C@]3(C)[C@@H]2C(=O)C=C2[C@@H]4[C@@H](C)[C@H](C)CC[C@]4(C)CC[C@]23C)[C@@]1(C)C(=O)NCCNC(=O)CCBr
IC50 (HBE; cell growth or viability, MTT; 48 h): 8.06 µM

C=CC(OC(C)=O)c1cc(OC)cc(OC)c1 (stereo not shown)
IC50 (HSC-4; MTT; 24 h): > 50 µM

Cc1cc(C#N)cc(C)c1Oc1cc(Nc2ccc(C#N)cc2)nc2ccncc12
IC50 (HuCC-A1; 48 h): > 128 µM

COC(=O)[C@@H]1[C@@H](OC)[C@H](OC(=O)c2cc(OC)c(OC)c(OC)c2)C[C@@H]2CN3CC[C@]4(O[C@@H]3C(=O)[C@@H]21)C(=O)Nc1cc(OC)c(-c2ccc(C(F)(F)F)cc2)cc14
IC50 (RS4-11; cell growth or viability, trypan blue; 72 h): 0.32 µM

CCCCCCCCCCCCn1c(-c2cccnc2)nc(-c2ccc(C)cc2)c1-c1ccc(C)cc1
IC50 (L929; cell growth or viability, SRB): 284 µM

CC(C)c1cccc(C(C)C)c1-n1c(Cl)c(Cl)n(-c2c(C(C)C)cccc2C(C)C)c1=[Se].[Cl][Ag]
IC50 (human ovarian cancer cells; cell viability, MTT; 72 h): 4.4 ± 1.2 µM

O=C(Nc1ncnc2c1ncn2[C@@H]1O[C@H](CO)[C@@H](O)[C@H](F)[C@H]1O)c1ccccc1
IC50 (Molt4/C8; cell growth or viability): 81 µM

COc1c(C)c(OC(=O)c2ccccc2)c(C)c(OC(=O)c2ccccc2)c1C(=O)/C=C/c1ccccc1
IC50 (FaDu; cell growth or viability, SRB; 72 h): 24.5 µM

CC(C)c1cccc(C(C)C)c1N1CCN(c2c(C(C)C)cccc2C(C)C)C1=[Se].[Cl][Ag]
IC50 (LoVo; cell growth or viability, MTT; 72 h): 2.7 µM

C=C1C(=O)C23CCC4C(C)(C)CCCC4(C)C2C(O)CC1C3 (single isomer, unassigned)
IC50 (HBE; cell growth or viability, MTT): 5.1 µM

C=CC(=O)NCCCCCCCCCCOCc1cn(CCCCCCCCCCNC(=O)C=C)n[n+]1C
IC50 (L929; cell growth or viability; 72 h): 15.1 µM

CCCC(CCC)C(=O)NCCNC(=O)[C@@]1(C)[C@H](O)CC[C@@]2(C)[C@H]1CC[C@]1(C)[C@@H]2C(=O)C=C2[C@@H]3[C@@H](C)[C@H](C)CC[C@]3(C)CC[C@]21C
IC50 (HBE; cell growth or viability, MTT; 48 h): 13.8 µM

CC1=C2[O][Ru-]([Cl])[O+]=C2C=CN1CCCCCCN1C=CC2=[O+][Ru-]([Cl])[O]C2=C1C.Cc1ccc(C(C)C)cc1.Cc1ccc(C(C)C)cc1
IC50 (SISO; cell growth or viability, crystal violet; 96 h): 9.5 µM

Cc1ccc2oc(-c3c4c(N)n[nH]c(=O)c4nn3-c3ccc(NC(=O)/C=C/CN(C)C)cc3)c(C)c2c1
IC50 (H1581 (FGFR1 amplified); cell proliferation): 0.0018 ± 0.0004 µM

CCOP(=O)(OCC)C(Cc1ccccc1F)Nc1ccc(Cl)cc1 (stereo not shown)
IC50 (U-118-MG; cell growth or viability, MTT; 48 h): 91.2 µM

CC(=O)O[C@@H]1CC[C@@]2(C)[C@@H](CC[C@]3(C)[C@@H]2C(=O)C=C2[C@@H]4[C@@H](C)[C@H](C)CC[C@]4(C)CC[C@]23C)[C@@]1(C)C(=O)NCCNC(=O)CCCC[P+](c1ccccc1)(c1ccccc1)c1ccccc1
IC50 (HBE; cell growth or viability, MTT; 48 h): > 30 µM

CCCn1c(-c2cccnc2)nc(-c2ccc(C)cc2)c1-c1ccc(C)cc1
IC50 (L929; cell growth or viability, SRB): 26.6 µM

CC(C)c1cccc(C(C)C)c1-n1c2c([n+](-c3c(C(C)C)cccc3C(C)C)[c]1[Cu-][Cl])-c1cccc3cccc-2c13
IC50 (2008; cell growth, MTT; 72 h): 7 ± 1 µM

COc1ccc2cc3[n+](cc2c1OCc1cn(Cc2ccc(C(C)(C)C)cc2)nn1)CCc1cc2c(cc1-3)OCO2
IC50 (SW1990; cell growth or viability, MTT): 8.54 µM

CC1=CC(C)=[O+][Pt-2]([NH3+])([NH3+])[O]1.CC1=CC(C)=[O+][Pt-2]([NH3+])([NH3+])[O]1.O=S(=O)([O-])[O-] (stereo not shown)
IC50 (U2OS; cell growth or viability, MTT): 24 µM

O=C1C(Br)=C(Br)C(=O)c2ccccc21
IC50 (HuCC-A1; cell growth or viability, MTT): 48.3 µM

CC(=O)Oc1ccccc1C(=O)[O][Pt]([NH2])([NH2])([Cl])([Cl])[O]C(=O)CCCc1ccccc1
IC50 (LoVo; cell growth or viability, MTT; 72 h): 0.055 µM

C=CC(=C)CC[C@]1(C)[C@H](C)CC[C@@]23C(=C[C@H](OC(=O)CCCCC)C[C@@H]12)[C@@H](OC(C)=O)O[C@H]3OC(C)=O
IC50 (KB; cell growth or viability, SRB): 0.56 µM

CCCCn1cc(C(=O)O)c(=O)c2cc(F)c(Nc3cc(OC)c(OC)c(OC)c3)c(N)c21
IC50 (periodontal ligament fibroblasts; cell viability, SRB; 72 h): 7.52 ± 0.14 µM

CC(=O)Oc1ccccc1C(=O)[O][Pt]([NH2])([NH2])([Cl])([Cl])[O]C(=O)C(Cl)Cl
IC50 (LoVo; cell growth or viability, MTT; 72 h): 0.755 µM

COc1ccc2cc3[n+](cc2c1OCc1cn(Cc2ccc(F)cc2Br)nn1)CCc1cc2c(cc1-3)OCO2
IC50 (SW1990; cell growth or viability, MTT): 44.2 µM

N=C(N/N=C/c1cncnc1)N/N=C/c1cncnc1
IC50 (KP-4; cell growth or viability, crystal violet; 72 h): 119 µM

CCCC/C=N/NC(=O)c1cc2cc(Nc3nccc(-c4cccnc4)n3)ccc2[nH]1
IC50 (HepG2, HeLa, MDA-MB-231, MCF7; cell growth, MTT; cancer cell lines as group): > 50 µM

C=C1C2C(OC(=O)c3ccccc3)C3C4N(C)C5C(O)C3(C1O)C(C2OC(C)=O)C41C(OC(C)=O)C(OC(=O)c2ccccc2)CC(C)(C=O)C51 (stereo not shown)
IC50 (HBE; cell growth or viability, MTT): 43.7 µM

Cc1ccc(C(=O)NCCNC(=O)[C@@]2(C)[C@H](O)CC[C@@]3(C)[C@H]2CC[C@]2(C)[C@@H]3C(=O)C=C3[C@@H]4[C@@H](C)[C@H](C)CC[C@]4(C)CC[C@]32C)cc1
IC50 (HBE; cell growth or viability, MTT; 48 h): 5.74 µM

CCCCCCCCC=CCCCCCCCC(=O)OCC1OC(n2ccc(N)nc2=O)C(F)(F)C1O (stereo not shown)
IC50 (AG6000 (gemcitabine-resistant A2780, dCK-deficient); cell growth, SRB; 72 h): 91 ± 6 µM

N=C(N/N=C/c1cc2ccccc2c2ccccc12)N/N=C/c1cc2ccccc2c2ccccc12
IC50 (KP-4; cell growth or viability, crystal violet; 72 h): 139 µM

N#C/C(=C\c1cn(-c2ccccc2)nc1-c1ccc(Cl)cc1)c1nc2ccccc2[nH]1
IC50 (SW1990; cell growth or viability, ATP luminescence; 72 h): > 100 µM

COc1ccc2cc3[n+](cc2c1OCc1cn(Cc2ccc(C#N)cc2)nn1)CCc1cc2c(cc1-3)OCO2
IC50 (SW1990; cell growth or viability, MTT): 101 µM

CCNC(=O)OCc1c(COC(=O)NCC)c(-c2ccc(OC)cc2)n2c1Cc1ccccc1-2
IC50 (CL25; cell growth, Alamar Blue; 72 h): 17.1 ± 3.2 µM

Cc1ccc(C(C)C)cc1.[Au][S]C1=NCCS1.[Cl][Ru][Cl].c1ccc(P(CP(c2ccccc2)c2ccccc2)c2ccccc2)cc1
IC50 (L929; cell growth or viability, trypan blue; 48 h): 48.6 µM

OC[C@H]1[C@@H](O)[C@@H](O)CN1CCc1ccccc1
IC50 (U2OS; cell growth or viability, MTS; 72 h): > 200 µM

CCC12CCc3c(c4ccccc4n3C)CCN(CC3OC31)C2 (stereo not shown)
IC50 (BV-2; NO release, inhibitor, Griess; LPS-stimulated): ~6 µM

N=C(N)NCCC[C@H](N)C(=O)N[C@@H](CC(=O)N[C@@H](CC(=O)O)C(=O)O)c1cccc2ccccc12
IC50 (MCF-7 (no HER2 overexpression)): > 50 µM

A few entries again:
CCCCCCC(=O)NCCNC(=O)[C@@]1(C)[C@H](O)CC[C@@]2(C)[C@H]1CC[C@]1(C)[C@@H]2C(=O)C=C2[C@@H]3[C@@H](C)[C@H](C)CC[C@]3(C)CC[C@]21C
IC50 (HBE; cell growth or viability, MTT; 48 h): 7.86 µM

CN1CCN(C(=O)N(CCCCCCC(=O)NO)c2ccc(-c3ccc4cnn(C)c4c3)cc2)CC1
IC50 (MJ; cell viability; 72 h): 0.0933 ± 0.0042 µM

Cc1cc(C#N)cc(C)c1Oc1cc(Nc2ccc(C#N)cc2)nc2cnccc12
IC50 (HuCC-A1; 48 h): > 128 µM
